{"data": "Assay results pooled from the literature", "note": "Parts stem from different laboratories: compare values within a part only."}
{"data": "Sample 1", "target": "Sal-like protein 4, full length isoform B (SALL4, Homo sapiens, UniProt Q9UJQ4-2, residues 1-616)", "technique": "universal PBM", "form": "double-stranded DNA, one strand shown", "medium": "in vitro", "tested at": "not given", "notes": "8-mer, flanks averaged, mean of replicates", "reading": "higher = stronger binding"}
{"Strand": "CCACGTCC", "E-score": -0.237}
{"Strand": "CAATGGAG", "E-score": -0.0216}
{"Strand": "CGAAACTA", "E-score": 0.111}
{"Strand": "GTACGAAC", "E-score": 0.185}
{"Strand": "CAGGCACG", "E-score": -0.266}
{"Strand": "ACTCTAGA", "E-score": 0.0753}
{"Strand": "CAACCGAA", "E-score": -0.0637}
{"Strand": "CGCTTTAA", "E-score": 0.0432}
{"data": "Sample 2", "cell line": "HEK-293T", "read-out": "pseudovirus infection", "organism": "VSV pseudotyped with SARS-CoV-2 spike", "tested at": "10 µM", "time": "16 h", "baseline": "vehicle-treated"}
{"Structure (SMILES)": "COc1cc2c(Nc3ccc(Br)cc3F)ncnc2cc1OCC1CCN(C)CC1", "GFP-positive cells": "20.3%"}
{"Structure (SMILES)": "Cc1c(O)cccc1C(=O)N[C@@H](CSc1ccccc1)[C@H](O)CN1C[C@H]2CCCC[C@H]2C[C@H]1C(=O)NC(C)(C)C", "GFP-positive cells": "73.9%"}
{"Structure (SMILES)": "C[C@]12CCC3=C4CCC(=O)C=C4CC[C@H]3[C@@H]1CC[C@@]2(O)CC#N", "GFP-positive cells": "94.9%"}
{"Structure (SMILES)": "CCCCCCC(=O)O[C@H]1CC[C@H]2[C@@H]3CCC4=CC(=O)CC[C@]4(C)[C@H]3CC[C@]12C", "GFP-positive cells": "100%"}
{"data": "Sample 3", "target": "Replicase polyprotein 1ab, polymerase (rep, Severe acute respiratory syndrome coronavirus 2, UniProt P0DTD1)", "read-out": "enzyme activity", "action": "inhibitor", "tested at": "20 µM"}
{"SMILES": "CC(C)OC(=O)CNC(=O)[C@H](CS)NC(=O)CC[C@H](N)C(=O)O", "inhibition [%]": 1.96}
{"SMILES": "CCCCCCc1ccc(O)cc1O", "inhibition [%]": 24.4}
{"SMILES": "Fc1ccc([C@@H]2CCNC[C@H]2COc2ccc3c(c2)OCO3)cc1", "inhibition [%]": -2.11}
{"SMILES": "Cc1c(Nc2ncccc2C(=O)O)cccc1C(F)(F)F", "inhibition [%]": -0.36}
{"SMILES": "OC[C@H]1O[C@@H](n2cnc3c(NC4CCCC4)nc(Cl)nc32)[C@H](O)[C@@H]1O", "inhibition [%]": -2.3}
{"SMILES": "C=CC(C)(C)c1cc(/C=C/C(=O)c2ccc(O)cc2)c(OC)cc1O", "inhibition [%]": -0.72}
{"SMILES": "NC(=O)NCCN1CCN(c2cccc(C(F)(F)F)c2)CC1", "inhibition [%]": -0.21}
{"SMILES": "CCOC(=O)C1=C(C)NC2=C(C(=O)CC(C)(C)C2)C1c1ccc(-c2ccccc2)cc1 (centres unmarked)", "inhibition [%]": 2.94}
{"SMILES": "O=C(c1ccc(Cl)o1)N1C[C@H]2CNC[C@H]2C1", "inhibition [%]": -1.88}
{"SMILES": "CCOC(=O)CSCCC1NC(C(=O)O)CS1 (centres unmarked)", "inhibition [%]": -1.91}
{"SMILES": "c1ccc(Oc2nc(NC3CCCCC3)c3[nH]cnc3n2)cc1", "inhibition [%]": -0.1}
{"SMILES": "COc1ccc(S(=O)(=O)N(C(C)=O)c2ccccc2/C=C/c2cc[n+]([O-])cc2)cc1", "inhibition [%]": 2.89}
{"SMILES": "NCCCCCC(O)(P(=O)(O)O)P(=O)(O)O", "inhibition [%]": 0.19}
{"SMILES": "CC(C)OC(=O)N1CCC(Oc2ncnc3c2cnn3-c2ccc(S(C)(=O)=O)cc2F)CC1", "inhibition [%]": -5.34}
{"SMILES": "O[C@@](Cc1ncc(CC2(C(F)(F)F)CC2)[nH]1)(c1ccc(-n2cccn2)cc1)C(F)(F)F", "inhibition [%]": -2.23}
{"SMILES": "N[C@@H](CS(=O)O)C(=O)O", "inhibition [%]": 2.57}
{"SMILES": "NCCC(O)(P(=O)(O)O)P(=O)(O)O", "inhibition [%]": -3.92}
{"SMILES": "C[C@H]1N=C(N(C)C)N=C(N)N1", "inhibition [%]": -5.59}
{"SMILES": "COc1cc(C(C)=O)ccc1O", "inhibition [%]": -11.5}
{"SMILES": "N#Cc1cnc2c(Cl)cc(NCc3cn(CCN4CCCCCC4)nn3)cc2c1Nc1ccc(F)c(Cl)c1", "inhibition [%]": -0.47}
{"SMILES": "C[C@H](Oc1cc(-c2cnn(C3CCNCC3)c2)cnc1N)c1c(Cl)ccc(F)c1Cl", "inhibition [%]": 18.8}
{"SMILES": "C[N+]1([O-])[C@@H]2C[C@@H](OC(=O)[C@H](CO)c3ccccc3)C[C@H]1[C@@H]1O[C@@H]12 (some centres unmarked)", "inhibition [%]": -2.52}
{"SMILES": "Cc1ccc(NC(=O)C(C)C)cc1C1CCN(Cc2ccc(Oc3ccc(F)c(F)c3)cc2)CC1", "inhibition [%]": 1.91}
{"SMILES": "O=C(O)CCc1c[nH]c2ccccc12", "inhibition [%]": -5.02}
{"SMILES": "C=C1CC[C@H](O)C/C1=C/C=C1\\CCC[C@]2(C)[C@@H]([C@H](C)CCCC(C)C)CC[C@@H]12", "inhibition [%]": 14.7}
{"data": "Sample 4", "target": "Replicase polyprotein 1ab, main protease (rep, Severe acute respiratory syndrome coronavirus 2, UniProt P0DTD1)", "read-out": "enzyme activity", "action": "inhibitor", "tested at": "20 µM", "notes": "hit confirmation"}
{"Compound": "COc1cc2c(cc1OC(C)C)[C@H](c1ccc(Cl)cc1)N(c1ccc(N(C)C[C@H]3CC[C@H](N4CCN(C)C(=O)C4)CC3)cc1)C(=O)C2", "inhibition": "24.2%"}
{"Compound": "C[C@H](NC(=O)/C(C#N)=C/c1cccc(Br)n1)c1ccccc1", "inhibition": "92.3%"}
{"Compound": "N#Cc1c(O)c2c(-c3ccc(-c4ccccc4O)cc3)csc2[nH]c1=O", "inhibition": "9.4%"}
{"data": "Sample 5", "target": "Interferon regulatory factor 5, full length, phosphomimetic (IRF5, Homo sapiens, UniProt Q13568-2, residues 1-514, S451D/S453D/S456D/S462D)", "technique": "protein-binding microarray", "form": "double-stranded DNA, one strand shown", "medium": "in vitro", "tested at": "940 nM top", "notes": "60-bp whole probe", "added": "salmon DNA 0.4 mg/ml", "baseline": "random background probes", "reading": "higher = stronger binding", "all sequences stand within": "GCCTAGCAC … GTCTTGATTCGCTTGACGCTGCTG"}
{"Strand": "TTAGATTTCGTGTATCGATTAGTGCTA", "fitted relative affinity": "1.32 z-score"}
{"Strand": "TTAGGACTGGGTCCCGGTTAGTGCTAG", "fitted relative affinity": "-0.253 z-score"}
{"Strand": "TTAGATCTTAGTATCGATTAGTGCTAG", "fitted relative affinity": "5.13 z-score"}
{"Strand": "AATATTCTGCTTTGCAATAAGTGCTAG", "fitted relative affinity": "0.0604 z-score"}
{"Strand": "TTAGATTTCGGTTCCGGTTAGTGCTAG", "fitted relative affinity": "4.05 z-score"}
{"Strand": "TCATGTCTGGGTCTTGGACTGTGCTAG", "fitted relative affinity": "-0.221 z-score"}
{"Strand": "TTAGGTATCATACTGCTTTAGTGCTAG", "fitted relative affinity": "1.9 z-score"}
{"Strand": "TAGAGTCTCAACCCCCAATAAGTGCTA", "fitted relative affinity": "0.937 z-score"}
{"data": "Sample 6", "target": "Fragile X messenger ribonucleoprotein 1, C-terminal low-complexity region (Fmr1, Mus musculus, UniProt P35922)", "technique": "RNA Bind-n-Seq", "form": "RNA", "medium": "in vitro", "tested at": "200 nM", "notes": "whole 134-nt RNA, ends assumed", "added": "150 mM LiCl", "baseline": "input library", "reading": "higher = stronger binding", "each molecule": "7-deaza-guanosine replaces G"}
{"Strand": "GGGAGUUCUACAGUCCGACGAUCCACAGACAACACGCACCCACACAGACACACAGGGAAGGGGUUGGGAUGGGGACAGGGUGCACAGCAGGGCGGGGUAGGACCCCAGCCCCUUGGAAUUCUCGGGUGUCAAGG", "log2 enrichment": 0.0973}
{"Strand": "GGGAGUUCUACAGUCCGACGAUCCUCAAGUCCUGUGCUACACAUCGUAUGUACCGAAUCGGUGGUUUUUGGUUUGGAAAGUAUUAUGUUACGCCGUUCGGAUCUGCACUUCCAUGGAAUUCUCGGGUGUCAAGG", "log2 enrichment": -0.228}
{"Strand": "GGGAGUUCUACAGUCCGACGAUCUGGGAGUUGGAUUUUGUUUAUUUUUUUAGCUCAUUUCCAGGGGUGGGAAUUUUUUUUUAAUAUGUGUCAUGAAUAAAGUUGUUUUUGAAAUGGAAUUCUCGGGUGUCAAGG", "log2 enrichment": 0.408}
{"Strand": "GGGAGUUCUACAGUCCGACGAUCUCCUGUGCUACACAUCGUAUGUACCGAAUCGGGGUUUUUUUGGGGUGGGGAAAAAGGGGAAAGUAUUAUGUUACGCCGUUCGGAUCUGCAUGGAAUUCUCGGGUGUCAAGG", "log2 enrichment": -1.63}
{"Strand": "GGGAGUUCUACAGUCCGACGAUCUUAAGGAAGGACACUGAGUCAUGCACAAGUCCUUGCCUUCUUGGUGCCCCUCGGAAAGCACAAGACCCCUCCUCUGCUGGGUGUGAUCAAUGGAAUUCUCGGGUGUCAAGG", "log2 enrichment": 1.38}
{"Strand": "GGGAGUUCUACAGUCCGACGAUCUGCCAUAAGCGGCACCGGCACUGCCCGGUUGUCGUGUCCGAGGCCACCAUCGUGGGCGUCCGCAAGACCGGGCAGAUCUGGCCCAACGAUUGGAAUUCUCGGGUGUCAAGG", "log2 enrichment": -1.92}
{"Strand": "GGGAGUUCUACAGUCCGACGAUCGUCCUGUGCUACACAUCGUAUGUACCGAAUCGGGGAAAGGGGAAAAAAAGGGGUGGGGAAAGUAUUAUGUUACGCCGUUCGGAUCUGCACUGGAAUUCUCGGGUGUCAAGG", "log2 enrichment": -0.498}
{"Strand": "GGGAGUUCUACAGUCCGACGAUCUGGCCCUGGUGGCAUGCAGGGAGGAAGAGGUGGCCUCAUGGAUCGUGGUGGUCCCGGUGGAAUGUUCAGAGGUGGCCGUGGUGGAGACAGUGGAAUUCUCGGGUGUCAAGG", "log2 enrichment": 0.368}
{"note": "For quick reference, copied from above (sample 3):"}
{"SMILES": "C=CC(C)(C)c1cc(/C=C/C(=O)c2ccc(O)cc2)c(OC)cc1O", "inhibition [%]": -0.72}
{"SMILES": "NC(=O)NCCN1CCN(c2cccc(C(F)(F)F)c2)CC1", "inhibition [%]": -0.21}
{"SMILES": "CCOC(=O)C1=C(C)NC2=C(C(=O)CC(C)(C)C2)C1c1ccc(-c2ccccc2)cc1 (centres unmarked)", "inhibition [%]": 2.94}
{"SMILES": "O=C(c1ccc(Cl)o1)N1C[C@H]2CNC[C@H]2C1", "inhibition [%]": -1.88}
{"SMILES": "CCOC(=O)CSCCC1NC(C(=O)O)CS1 (centres unmarked)", "inhibition [%]": -1.91}
{"SMILES": "c1ccc(Oc2nc(NC3CCCCC3)c3[nH]cnc3n2)cc1", "inhibition [%]": -0.1}
{"SMILES": "COc1ccc(S(=O)(=O)N(C(C)=O)c2ccccc2/C=C/c2cc[n+]([O-])cc2)cc1", "inhibition [%]": 2.89}
{"SMILES": "NCCCCCC(O)(P(=O)(O)O)P(=O)(O)O", "inhibition [%]": 0.19}
{"SMILES": "CC(C)OC(=O)N1CCC(Oc2ncnc3c2cnn3-c2ccc(S(C)(=O)=O)cc2F)CC1", "inhibition [%]": -5.34}
